Published values from different studies.
A part holds a random share of what one study measured.

Series 1 — technique: protein-binding microarray; molecule type: double-stranded DNA, one strand shown; matrix: in vitro; concentration: not given; direction: higher = stronger binding
Target: Transcription factor Sp1 (SP1, Homo sapiens, UniProt P08047, residues 1-785, full length assumed)
Sequence of UniProt P08047 (whole entry, looked up): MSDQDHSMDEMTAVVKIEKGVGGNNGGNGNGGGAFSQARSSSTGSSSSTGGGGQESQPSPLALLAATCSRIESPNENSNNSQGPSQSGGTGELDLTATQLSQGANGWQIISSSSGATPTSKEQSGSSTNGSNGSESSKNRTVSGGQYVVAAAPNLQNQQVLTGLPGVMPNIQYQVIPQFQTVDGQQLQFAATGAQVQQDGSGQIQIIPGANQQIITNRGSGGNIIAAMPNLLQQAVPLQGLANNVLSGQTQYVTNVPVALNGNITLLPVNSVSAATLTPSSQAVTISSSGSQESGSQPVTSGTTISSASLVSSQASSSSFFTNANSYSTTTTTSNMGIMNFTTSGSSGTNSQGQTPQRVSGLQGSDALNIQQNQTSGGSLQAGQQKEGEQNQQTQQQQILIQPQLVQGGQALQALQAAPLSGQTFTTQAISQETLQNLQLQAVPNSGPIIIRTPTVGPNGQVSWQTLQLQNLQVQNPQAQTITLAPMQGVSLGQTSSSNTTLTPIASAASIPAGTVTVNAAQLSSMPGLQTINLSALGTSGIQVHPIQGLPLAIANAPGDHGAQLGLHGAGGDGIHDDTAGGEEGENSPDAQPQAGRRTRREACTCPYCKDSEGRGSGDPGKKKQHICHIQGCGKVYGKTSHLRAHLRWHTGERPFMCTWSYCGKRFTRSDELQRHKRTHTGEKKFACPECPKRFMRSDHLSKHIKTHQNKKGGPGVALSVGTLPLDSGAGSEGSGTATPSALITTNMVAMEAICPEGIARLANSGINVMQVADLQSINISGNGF
Setting: k-mer, scored over probes, only values ≥0.25
The E-score of `TACCCCTA` is reported as 0.315.
For `CCTCCCCC`, the E-score was 0.363.
`AAGGGAGG` gave an E-score of 0.333.
The E-score of `ACATGTAT` is reported as 0.301.

Series 2 — technique: protein-binding microarray; molecule type: double-stranded DNA, one strand shown; matrix: in vitro; concentration: 250 nM; setting: 60-bp whole probe; with: salmon DNA 0.4 mg/ml; reference: random background probes; direction: higher = stronger binding; all sequences stand within: GCCTAGCAC … GTCTTGATTCGCTTGACGCTGCTG
Target: Interferon regulatory factor 5, full length, phosphomimetic (IRF5, Homo sapiens, UniProt Q13568-2, residues 1-514, K96S/S451D/S453D/S456D/S462D)
For `CTTAGCTTGGGTCTGTGCCTGTGCTAG`, the log fluorescence was -0.516 z-score.
`TCAACTATTGCTTCCTCACTGTGCTAG` has a log fluorescence of 0.83 z-score.
The log fluorescence of `TTAGGACTGAGTATCGGTTAGTGCTAG` is reported as 6.49 z-score.
For `TTAGATTTGGGGTTTCGATTAGTGCTA`, the log fluorescence was 5.73 z-score.
With `GACGAACTTGGGTTTCGAGACGTGCTA` the log fluorescence was 1.72 z-score.

Series 3 — technique: universal PBM; molecule type: double-stranded DNA, one strand shown; matrix: in vitro; concentration: 600 nM; direction: higher = stronger binding
Target: Sal-like protein 4, full length isoform A (SALL4, Homo sapiens, UniProt Q9UJQ4, residues 1-1053)
Sequence of UniProt Q9UJQ4 (whole entry, looked up): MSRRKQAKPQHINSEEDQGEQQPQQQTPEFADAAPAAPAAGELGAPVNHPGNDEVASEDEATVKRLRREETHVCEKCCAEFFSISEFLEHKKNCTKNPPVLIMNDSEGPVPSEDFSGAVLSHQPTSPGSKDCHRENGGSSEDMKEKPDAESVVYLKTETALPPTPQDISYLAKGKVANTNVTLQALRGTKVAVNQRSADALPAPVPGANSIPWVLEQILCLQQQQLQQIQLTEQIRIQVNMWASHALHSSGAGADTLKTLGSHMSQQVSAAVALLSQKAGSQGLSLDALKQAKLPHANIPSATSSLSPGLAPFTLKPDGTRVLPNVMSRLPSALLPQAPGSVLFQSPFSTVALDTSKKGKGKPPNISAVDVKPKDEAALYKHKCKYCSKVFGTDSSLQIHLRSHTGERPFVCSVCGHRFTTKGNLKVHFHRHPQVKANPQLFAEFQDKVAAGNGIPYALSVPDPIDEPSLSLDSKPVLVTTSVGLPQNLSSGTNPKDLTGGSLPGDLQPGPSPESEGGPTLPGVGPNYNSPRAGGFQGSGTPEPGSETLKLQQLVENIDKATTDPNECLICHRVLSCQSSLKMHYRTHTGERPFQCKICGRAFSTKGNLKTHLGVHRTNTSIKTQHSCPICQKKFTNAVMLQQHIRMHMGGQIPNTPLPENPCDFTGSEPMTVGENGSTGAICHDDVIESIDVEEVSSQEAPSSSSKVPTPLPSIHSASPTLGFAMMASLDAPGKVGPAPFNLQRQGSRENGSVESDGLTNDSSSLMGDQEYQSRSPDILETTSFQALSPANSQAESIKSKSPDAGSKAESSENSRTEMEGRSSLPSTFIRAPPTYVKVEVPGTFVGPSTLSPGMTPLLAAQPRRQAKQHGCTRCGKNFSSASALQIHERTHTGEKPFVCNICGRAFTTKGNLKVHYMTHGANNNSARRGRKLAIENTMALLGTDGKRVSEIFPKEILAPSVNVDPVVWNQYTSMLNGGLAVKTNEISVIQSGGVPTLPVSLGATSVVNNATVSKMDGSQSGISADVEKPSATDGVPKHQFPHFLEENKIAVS
Setting: 8-mer, flanks averaged, mean of replicates
With `ATACCCGG` the E-score was -0.224.
`CCGGCGCC` gave an E-score of -0.338.
With `AGCTGGAT` the E-score was -0.086.
The E-score of `AGGAAAGG` is reported as -0.0469.
The E-score of `AACGAGGG` is reported as -0.00722.
`GAACATAC` gave an E-score of 0.143.

Further values, each from its own experiment
For `PhoQ, residues 284 288 289 292 302 303 SSCCRF`, the fold induction was 0.792 (PhoP, residues 12 14 15 18 19 AWHSL (Escherichia coli, UniProt P23836); Sort-seq, item: YFP reporter; E. coli; PhoQ-PhoP variant library, with: 10 µM Mg2+; reference: high Mg2+ state, higher = stronger signaling).
